Measured values from different studies.
Parts stem from different laboratories: compare values within a part only.
Sequence of UniProt Q13188 (whole entry, looked up): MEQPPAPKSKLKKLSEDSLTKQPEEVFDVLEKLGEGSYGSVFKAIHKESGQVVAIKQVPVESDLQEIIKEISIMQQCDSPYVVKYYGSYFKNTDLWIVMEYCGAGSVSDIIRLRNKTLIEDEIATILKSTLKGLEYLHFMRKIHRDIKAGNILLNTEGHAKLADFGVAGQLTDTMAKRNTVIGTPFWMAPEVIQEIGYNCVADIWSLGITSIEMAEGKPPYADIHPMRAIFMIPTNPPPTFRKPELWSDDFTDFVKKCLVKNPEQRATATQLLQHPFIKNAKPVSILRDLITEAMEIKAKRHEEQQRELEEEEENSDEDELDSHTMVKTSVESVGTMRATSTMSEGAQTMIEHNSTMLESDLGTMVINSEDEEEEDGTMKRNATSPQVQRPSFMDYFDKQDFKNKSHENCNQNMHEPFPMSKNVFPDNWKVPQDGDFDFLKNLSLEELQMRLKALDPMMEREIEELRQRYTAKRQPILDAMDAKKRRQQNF
Sequence of UniProt P42336 (whole entry, unmodified, looked up): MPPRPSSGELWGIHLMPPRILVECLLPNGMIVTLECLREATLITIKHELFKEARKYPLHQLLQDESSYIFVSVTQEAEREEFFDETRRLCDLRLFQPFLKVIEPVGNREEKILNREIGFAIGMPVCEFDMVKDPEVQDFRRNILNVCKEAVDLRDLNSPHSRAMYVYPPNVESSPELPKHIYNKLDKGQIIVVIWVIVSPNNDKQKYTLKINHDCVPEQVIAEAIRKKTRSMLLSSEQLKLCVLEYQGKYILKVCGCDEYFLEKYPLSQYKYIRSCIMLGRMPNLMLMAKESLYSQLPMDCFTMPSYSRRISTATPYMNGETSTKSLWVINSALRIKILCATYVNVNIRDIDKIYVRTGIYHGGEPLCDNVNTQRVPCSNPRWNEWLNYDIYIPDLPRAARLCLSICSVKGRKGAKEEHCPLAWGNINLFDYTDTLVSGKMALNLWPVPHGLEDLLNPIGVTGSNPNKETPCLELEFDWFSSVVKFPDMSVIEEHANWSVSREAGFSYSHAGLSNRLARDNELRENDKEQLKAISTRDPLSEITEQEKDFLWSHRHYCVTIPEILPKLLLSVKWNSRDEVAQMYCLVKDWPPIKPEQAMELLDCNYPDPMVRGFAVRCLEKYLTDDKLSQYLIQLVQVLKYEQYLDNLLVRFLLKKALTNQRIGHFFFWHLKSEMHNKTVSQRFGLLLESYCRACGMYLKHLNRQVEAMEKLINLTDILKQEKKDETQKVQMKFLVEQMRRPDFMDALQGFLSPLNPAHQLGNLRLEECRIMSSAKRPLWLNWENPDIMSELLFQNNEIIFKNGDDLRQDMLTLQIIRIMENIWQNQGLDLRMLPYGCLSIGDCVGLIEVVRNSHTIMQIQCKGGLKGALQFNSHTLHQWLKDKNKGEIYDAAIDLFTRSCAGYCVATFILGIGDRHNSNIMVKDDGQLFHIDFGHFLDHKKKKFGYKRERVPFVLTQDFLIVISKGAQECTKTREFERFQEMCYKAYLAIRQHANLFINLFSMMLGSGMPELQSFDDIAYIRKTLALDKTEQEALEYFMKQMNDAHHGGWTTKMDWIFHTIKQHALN
Sequence of UniProt Q9UQ88 (whole entry, looked up): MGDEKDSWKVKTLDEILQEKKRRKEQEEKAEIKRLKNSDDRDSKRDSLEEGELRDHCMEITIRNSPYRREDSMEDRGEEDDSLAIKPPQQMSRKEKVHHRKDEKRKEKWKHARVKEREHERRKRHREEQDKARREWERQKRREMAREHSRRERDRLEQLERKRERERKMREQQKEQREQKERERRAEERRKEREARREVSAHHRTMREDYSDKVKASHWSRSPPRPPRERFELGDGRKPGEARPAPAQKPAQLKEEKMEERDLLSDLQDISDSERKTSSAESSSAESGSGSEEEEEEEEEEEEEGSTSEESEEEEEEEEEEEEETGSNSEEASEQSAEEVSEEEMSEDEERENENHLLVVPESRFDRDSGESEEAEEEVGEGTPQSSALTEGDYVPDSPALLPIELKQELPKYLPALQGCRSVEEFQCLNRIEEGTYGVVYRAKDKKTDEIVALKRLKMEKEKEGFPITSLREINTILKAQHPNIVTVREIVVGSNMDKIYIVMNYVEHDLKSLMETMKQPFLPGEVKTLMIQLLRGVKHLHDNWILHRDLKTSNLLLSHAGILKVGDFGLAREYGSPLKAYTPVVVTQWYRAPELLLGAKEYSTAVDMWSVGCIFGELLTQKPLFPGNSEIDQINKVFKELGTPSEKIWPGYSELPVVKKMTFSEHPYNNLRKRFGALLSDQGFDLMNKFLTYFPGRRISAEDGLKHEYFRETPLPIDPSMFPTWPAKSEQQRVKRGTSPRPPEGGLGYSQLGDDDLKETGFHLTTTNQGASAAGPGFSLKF
Sequence of UniProt P04629 (whole entry, looked up): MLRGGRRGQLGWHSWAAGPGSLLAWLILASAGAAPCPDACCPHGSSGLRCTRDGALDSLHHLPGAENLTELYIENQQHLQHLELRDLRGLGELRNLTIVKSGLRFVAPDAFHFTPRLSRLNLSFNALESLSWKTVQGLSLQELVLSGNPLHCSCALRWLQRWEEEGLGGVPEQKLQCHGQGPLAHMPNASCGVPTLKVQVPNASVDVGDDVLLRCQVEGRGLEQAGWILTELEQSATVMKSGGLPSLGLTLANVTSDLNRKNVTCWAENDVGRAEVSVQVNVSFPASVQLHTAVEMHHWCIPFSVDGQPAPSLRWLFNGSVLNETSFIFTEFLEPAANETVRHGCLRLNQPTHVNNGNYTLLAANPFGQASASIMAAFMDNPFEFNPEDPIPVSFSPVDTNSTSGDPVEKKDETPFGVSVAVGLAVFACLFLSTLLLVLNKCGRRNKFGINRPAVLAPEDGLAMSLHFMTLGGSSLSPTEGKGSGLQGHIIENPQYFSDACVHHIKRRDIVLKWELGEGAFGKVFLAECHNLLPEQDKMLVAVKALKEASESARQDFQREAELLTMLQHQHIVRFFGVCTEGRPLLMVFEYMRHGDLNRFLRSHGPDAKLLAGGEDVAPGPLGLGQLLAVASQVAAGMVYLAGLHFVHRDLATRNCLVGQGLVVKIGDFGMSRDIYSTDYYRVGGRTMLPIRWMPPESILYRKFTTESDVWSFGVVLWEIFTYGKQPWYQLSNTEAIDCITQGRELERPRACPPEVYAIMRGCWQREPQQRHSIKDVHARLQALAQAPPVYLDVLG
Sequence of UniProt Q99558 (whole entry, looked up): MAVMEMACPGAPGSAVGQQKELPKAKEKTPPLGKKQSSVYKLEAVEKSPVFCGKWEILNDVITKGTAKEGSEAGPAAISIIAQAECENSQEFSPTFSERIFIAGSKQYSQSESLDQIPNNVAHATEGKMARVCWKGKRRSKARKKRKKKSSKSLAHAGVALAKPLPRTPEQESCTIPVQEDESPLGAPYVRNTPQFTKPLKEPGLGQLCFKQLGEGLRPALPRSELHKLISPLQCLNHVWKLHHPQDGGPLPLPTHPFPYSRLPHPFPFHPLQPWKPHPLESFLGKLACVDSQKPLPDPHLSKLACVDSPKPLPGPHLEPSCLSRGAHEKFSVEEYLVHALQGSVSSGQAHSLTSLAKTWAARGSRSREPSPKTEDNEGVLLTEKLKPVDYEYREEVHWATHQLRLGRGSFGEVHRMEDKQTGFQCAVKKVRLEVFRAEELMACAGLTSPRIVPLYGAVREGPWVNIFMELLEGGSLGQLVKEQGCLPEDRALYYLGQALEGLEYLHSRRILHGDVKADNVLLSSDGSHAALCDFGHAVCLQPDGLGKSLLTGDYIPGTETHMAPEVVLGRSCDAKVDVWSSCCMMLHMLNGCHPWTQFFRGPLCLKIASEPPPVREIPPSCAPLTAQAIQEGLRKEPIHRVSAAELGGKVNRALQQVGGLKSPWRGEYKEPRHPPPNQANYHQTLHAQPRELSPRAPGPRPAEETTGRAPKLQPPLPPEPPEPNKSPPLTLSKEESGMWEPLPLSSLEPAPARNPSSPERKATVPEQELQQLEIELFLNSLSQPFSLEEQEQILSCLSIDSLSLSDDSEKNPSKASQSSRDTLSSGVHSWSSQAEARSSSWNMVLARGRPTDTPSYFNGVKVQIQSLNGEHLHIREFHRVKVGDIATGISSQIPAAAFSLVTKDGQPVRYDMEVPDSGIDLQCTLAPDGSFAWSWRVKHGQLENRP
Sequence of UniProt P11802 (whole entry, looked up): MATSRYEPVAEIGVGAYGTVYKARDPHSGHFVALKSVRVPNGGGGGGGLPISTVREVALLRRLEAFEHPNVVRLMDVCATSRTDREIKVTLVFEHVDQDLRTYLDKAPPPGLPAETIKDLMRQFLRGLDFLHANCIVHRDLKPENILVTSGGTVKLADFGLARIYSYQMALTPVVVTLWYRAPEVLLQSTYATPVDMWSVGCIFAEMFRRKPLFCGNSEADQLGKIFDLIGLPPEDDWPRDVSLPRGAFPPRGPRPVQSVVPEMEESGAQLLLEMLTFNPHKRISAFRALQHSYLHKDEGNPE

Study 1
Cell line: mouse MPNST tumor cells
Technique: high-content nuclear imaging
Measured: cell number
Concentration: 10 µM
Time: 12 h
Setting: mean of 2 replicates
Relative to: plate mean
Reading: higher = more cells
| SMILES | nuclei count [z-score] |
| --- | --- |
| CNc1ccc([N+](=O)[O-])cc1-n1cnc(-c2ccc(C(F)(F)F)cc2)c1 | 1.15 |
| COc1cc(Cc2cnc(N)nc2N)c(C(C)C)cc1OC | 4.13 |
| O=C(NCC1(N2CCN(c3ccccc3)CC2)CCOCC1)c1cccnc1Sc1ccccc1 | 3.16 |
| CCCCOC(=O)c1ccc(N)cc1 | 1.06 |
| NCCCCCCCCCCNS(=O)(=O)c1cccc2c(Cl)cccc12 | -2.23 |
| Cc1cc(Nc2cc(C)c(C#N)c(NC(C)CCCC(C)(C)O)n2)n[nH]1 (stereo not shown) | -6.35 |
| CC1(C)CCC(CN2CCN(c3ccc(C(=O)NS(=O)(=O)c4ccc(NCC5CCOCC5)c([N+](=O)[O-])c4)c(Oc4cnc5[nH]ccc5c4)c3)CC2)=C(c2ccc(Cl)cc2)C1 | 0.0458 |
| COc1ccc2nc3n[nH]c(C)c3c(NCCOCCO)c2c1 | 1.13 |
| CCOC(=O)Nc1ccc2c(c1)N(C(=O)CN(CC)CC)c1ccccc1CC2 | 0.606 |
| CCOC(=O)OC(C)OC(=O)[C@@H]1N2C(=O)[C@@H](NC(=O)[C@H](N)c3ccccc3)[C@H]2SC1(C)C (stereo partly shown) | -0.858 |
| COc1c(C)cnc(Cn2cnc3c(Cl)nc(N)nc32)c1C | 0.635 |
| CCCn1c(=O)c2[nH]c(-c3ccc(OCC(=O)NCCN)cc3)nc2n(CCC)c1=O | 2.29 |

Study 2
SMILES: COc1cc(C(=O)N2CCC(N3CCN(C)CC3)CC2)ccc1Nc1ncc2c(n1)N(C)c1ccccc1C(=O)N2C
Technique: KINOMEscan
Concentration: 10 µM
Relative to: DMSO control
Reading: lower = stronger binding
| target | binding [%] |
| --- | --- |
| CAMK1G | 74 |
| ADCK3 | 71 |
| YSK4 | 99 |
| BRSK1 | 81 |
| FLT3 | 100 |
| BMX | 87 |
| CAMKK2 | 31 |
| BLK | 97 |
| HIPK2 | 88 |
| CSNK2A1 | 100 |
| WEE2 | 100 |
| MAP4K3 | 71 |
| PRKG1 | 98 |
| ERK4 | 100 |
| PIK3CB | 96 |
| CDK5 | 81 |

Study 3
Target: SRSF protein kinase 2 (SRPK2, Homo sapiens, UniProt P78362)
Sequence of UniProt P78362 (whole entry, looked up): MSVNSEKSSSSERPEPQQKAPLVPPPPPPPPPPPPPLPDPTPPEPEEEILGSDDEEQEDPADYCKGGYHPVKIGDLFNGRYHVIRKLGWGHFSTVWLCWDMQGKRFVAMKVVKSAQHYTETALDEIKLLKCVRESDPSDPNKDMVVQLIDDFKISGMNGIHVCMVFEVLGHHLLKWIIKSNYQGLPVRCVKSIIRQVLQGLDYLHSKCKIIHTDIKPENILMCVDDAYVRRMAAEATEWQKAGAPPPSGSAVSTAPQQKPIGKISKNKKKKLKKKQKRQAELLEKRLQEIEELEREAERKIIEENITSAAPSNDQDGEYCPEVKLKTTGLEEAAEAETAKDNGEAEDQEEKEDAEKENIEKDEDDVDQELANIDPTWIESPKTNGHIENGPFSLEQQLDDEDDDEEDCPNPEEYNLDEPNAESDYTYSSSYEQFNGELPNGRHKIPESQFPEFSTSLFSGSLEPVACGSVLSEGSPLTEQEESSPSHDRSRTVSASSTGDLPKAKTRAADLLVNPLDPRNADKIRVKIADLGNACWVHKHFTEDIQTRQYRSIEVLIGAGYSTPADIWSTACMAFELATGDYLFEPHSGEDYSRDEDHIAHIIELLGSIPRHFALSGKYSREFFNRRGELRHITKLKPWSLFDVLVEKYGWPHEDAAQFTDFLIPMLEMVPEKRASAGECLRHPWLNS
Read-out: enzyme activity
Action: inhibitor
Concentration: 0.5 µM
Relative to: control
| Compound | remaining activity [%] |
| --- | --- |
| Cn1cc(/C=C2\C(=O)Nc3ccc(S(N)(=O)=O)cc32)c2ccccc21 | 51.4 |
| CCOc1cc2ncnc(Nc3cccc(Br)c3)c2cc1OCC | 95.6 |
| Nc1[nH]nc2nnc(-c3c(-c4ccccc4)nn4ccccc34)cc12 | 73.8 |
| CN(C)CCCn1cc(C2=C(c3c[nH]c4ccccc34)C(=O)NC2=O)c2ccccc21 | 94.4 |
| COc1cc2ncnc(Nc3ccc(OCc4ccccc4)cc3)c2cc1OC | 92.3 |
| O=C(Nc1ccc(Cl)cc1)c1ccccc1NCc1ccncc1 | 85.1 |
| Cc1ccc(NC(=O)c2ccc(CN3CCN(C)CC3)cc2)cc1Nc1nccc(-c2cccnc2)n1 | 104 |
| Cn1cnc2cc3c(Nc4cccc(Br)c4)ncnc3cc21 | 97.1 |
| COc1cc2ncnc(N3CCN(C(=O)Nc4ccc(Oc5ccccc5)cc4)CC3)c2cc1OC | 89.1 |
| O=c1cc(N2CCOCC2)oc2c1ccc1ccccc12 | 100 |
| CCC(=O)Nc1ccc2ncnc(Nc3cccc(Br)c3)c2c1 | 88.6 |
| CS(=O)(=O)CCNCc1ccc(-c2ccc3ncnc(Nc4ccc(OCc5cccc(F)c5)c(Cl)c4)c3c2)o1 | 88 |
| CC(C)[C@H](CO)Nc1nc(Nc2cccc(Cl)c2)c2ncn(C(C)C)c2n1 | 53.6 |
| CCN1/C(=C/C(C)=O)Sc2ccc(OC)cc21 | 95.8 |
| C[S+]([O-])c1ccc(-c2nc(-c3ccncc3)c(-c3ccc(F)cc3)[nH]2)cc1 (stereo not shown) | 102 |
| Cc1nc(Nc2ncc(C(=O)Nc3c(C)cccc3Cl)s2)cc(N2CCN(CCO)CC2)n1 | 104 |
| COc1ccc(Cl)cc1NC(=O)Nc1cc(C)nc2ccccc12 | 94.9 |
| CC(C)c1nn(-c2c(Cl)cccc2Cl)c2nc(Cc3ccc(OCCO)cc3)[nH]c(=O)c12 | 89.2 |
| COc1cc2ncc(-c3ccccc3)nc2cc1OC | 84.4 |
| CC(=O)O/N=C1/C(c2c(O)[nH]c3cc(Br)ccc23)=Nc2ccccc21 | 96.6 |
| COc1ccc(-c2cnc3c(-c4ccsc4)cnn3c2)cc1 | 94.1 |
| O=C1NC(=O)/C(=C/c2ccc3nccnc3c2)S1 | 98.2 |

Study 4
SMILES: O=C(NCc1ncc(C(F)(F)F)cc1Cl)c1ccc2c(c1)C1(CCS(=O)(=O)CC1)[C@H](C1CC1)N2S(=O)(=O)c1ccc(F)cc1
Technique: competition with immobilised ligand
Concentration: 1 µM
| target | test | remaining binding |
| --- | --- | --- |
| MAP3K14 (Homo sapiens, UniProt Q99558) | cell-free assay | 100% |
| CIT (Homo sapiens, UniProt O14578) | cell-free assay | 100% |
| FLT3 (Homo sapiens, UniProt P36888, F691L/ITD) | cell-free assay | 76% |
| NTRK1 (Homo sapiens, UniProt P04629) | cell-free assay | 80% |
| Cyclin-dependent kinase 4, with cyclin D1 (CDK4, Homo sapiens, UniProt P11802) | cell-free assay | 93% |
| STK4 (Homo sapiens, UniProt Q13043) | cell-free assay | 87% |
| STK3 (Homo sapiens, UniProt Q13188) | cell-free assay | 100% |
| ULK1 (Homo sapiens, UniProt O75385) | cell-free assay | 90% |
| DYRK1A (Homo sapiens, UniProt Q13627) | cell-free assay | 88% |
| PNCK (Homo sapiens, UniProt Q6P2M8) | cell-free assay | 91% |
| CDK11A (Homo sapiens, UniProt Q9UQ88) | binding | 100% |
| MAPK9 (Homo sapiens, UniProt P45984) | cell-free assay | 76% |
| LTK (Homo sapiens, UniProt P29376) | cell-free assay | 87% |
| GAK (Homo sapiens, UniProt O14976) | cell-free assay | 97% |
| EPHA2 (Homo sapiens, UniProt P29317) | cell-free assay | 100% |
| RAF1 (Homo sapiens, UniProt P04049) | cell-free assay | 100% |
| PIK3CA (Homo sapiens, UniProt P42336, C420R) | cell-free assay | 77% |
| CDK9 (Homo sapiens, UniProt P50750) | cell-free assay | 100% |
| Tyrosine-protein kinase JAK2, JH1 (JAK2, Homo sapiens, UniProt O60674) | cell-free assay | 80% |
| Ribosomal protein S6 kinase alpha-4, N-terminal kinase domain (RPS6KA4, Homo sapiens, UniProt O75676) | cell-free assay | 100% |

For quick reference, copied from above (study 3):
| Compound | remaining activity [%] |
| --- | --- |
| COc1cc2ncnc(Nc3ccc(OCc4ccccc4)cc3)c2cc1OC | 92.3 |
| O=C(Nc1ccc(Cl)cc1)c1ccccc1NCc1ccncc1 | 85.1 |
| Cc1ccc(NC(=O)c2ccc(CN3CCN(C)CC3)cc2)cc1Nc1nccc(-c2cccnc2)n1 | 104 |
| Cn1cnc2cc3c(Nc4cccc(Br)c4)ncnc3cc21 | 97.1 |
| COc1cc2ncnc(N3CCN(C(=O)Nc4ccc(Oc5ccccc5)cc4)CC3)c2cc1OC | 89.1 |
| O=c1cc(N2CCOCC2)oc2c1ccc1ccccc12 | 100 |
| CCC(=O)Nc1ccc2ncnc(Nc3cccc(Br)c3)c2c1 | 88.6 |
